Experimental data collected from several papers.
Lines come from different studies, so protocols differ. Numbers after ± are the reported error.
Cell line: HepG2

| SMILES | observed | mode | technique | tested at | time | reference | IC50 |
| --- | --- | --- | --- | --- | --- | --- | --- |
| O=C(CN1CCN(c2nc3ccccc3nc2Cl)CC1)Nc1ccc([N+](=O)[O-])cc1 | cell growth or viability | – | MTT | – | 24 h | – | 11.4 µM |
| COc1cc(-c2ccc(C(=O)N/N=C/c3ccncc3)c(C)n2)cc(OC)c1OC | cell growth or viability | – | MTT | – | – | – | 10.8 µM |
| CCCCNC(=O)c1ccc(NC(=O)CSc2nc3ccccc3nc2C)cc1 | cell growth or viability | – | MTT | – | – | – | 41.2 µM |
| O=C(CN1CCN(c2nc3ccccc3nc2Cl)CC1)Nc1ccc(Cl)cc1 | cell growth or viability | – | MTT | – | 24 h | – | 22.6 µM |
| Cc1ccc(/C=N/NC(=O)/C(=C/c2ccc(F)cc2)NC(=O)c2ccccc2)cc1 | – | – | – | concentration not given | – | – | 31.6 ± 1.57 µM |
| COc1cc(-c2cc(-c3ccc(Cl)cc3)n(CN3CCCCC3)c(=O)c2C#N)ccc1O | cell growth or viability | – | MTT | – | – | – | ≥ 50 µM |
| O=C(CN1CCN(c2nc3ccccc3nc2Cl)CC1)NCc1ccccc1 | cell growth or viability | – | MTT | – | 24 h | – | 9.52 µM |
| COc1ccc(/C=N/NC(=O)c2ccc(-c3cc(OC)c(OC)c(OC)c3)nc2C)cc1OC | cell growth or viability | – | MTT | – | – | – | 5.87 µM |
| NC(N)=NC(=O)c1nc(Cl)c(N2CCCCCC2)nc1N | cell viability | – | ATP content | – | 24 h | – | 56 µM |
| O=[N+]([O-])c1ccc(-n2nc(-c3cccs3)sc2=NN=C2CCCC2)cc1 | cell growth or viability | – | – | – | – | – | 70.1 µM |
| COc1ccc(-c2cc(-c3ccc(N(C)C)cc3)c3c(=O)n(C)c(=O)n(C)c3n2)cc1 | cell growth or viability | – | MTT | – | 48 h | – | < 5 µM |
| Cc1ccc(NCC(=O)n2ncc3c(=N)n(N[C@@H]4OC[C@@H](O)[C@H](O)[C@H]4O)cnc32)cc1 | cell growth or viability | – | MTT | – | 48 h | – | 0.09 µM |
| Cc1c(C(=O)/C=C/c2cc3ccccc3s2)nnn1-c1c(Cl)cc(Cl)cc1Cl | cell viability | – | MTT | – | – | – | 9.7 to 15.6 µM |
| N#Cc1c(-c2ccc(Cl)cc2)c(C(N)=O)c(N)n(C2CCCCC2)c1=O | cell growth or viability | – | MTT | – | – | – | 15.6 µM |
| O=C(Nc1ccccc1)/C(=C/c1ccc(F)cc1)NC(=O)c1ccccc1 | – | – | – | concentration not given | – | – | 53.2 ± 1.73 µM |
| CC(C)(C)c1cc(C(C)(C)C)c(NC(=O)c2c[nH]c3ccccc3c2=O)cc1O | oxygen consumption rate | inhibitor | Seahorse Mito Stress Test | – | 1 h | DMSO 0.2% | 10.3 µM |
| CNC(=O)c1cc(Oc2ccc(NC(=O)Nc3ccc(Cl)c(C(F)(F)F)c3)cc2)ccn1 | cell growth or viability | – | MTT | – | 48 h | – | 1.39 µM |
| CC(=O)OCC(CSc1nc2c3cnn(C(=O)CNc4ccc(C)cc4)c3ncn2n1)OC(C)=O (centres unmarked) | cell growth or viability | – | MTT | – | 48 h | – | 0.09 µM |
| CCSc1nnc(-c2ccc(-c3cc(OC)c(OC)c(OC)c3)nc2C)o1 | cell growth or viability | – | MTT | – | – | – | 8.57 µM |
| COc1cc(/C=C/C(=O)CC(=O)/C=C/c2ccc(O)c(OC)c2)ccc1O | cell growth or viability | – | MTT | – | 48 h | – | 15.8 µg/mL |
| Cc1ccc(NC(=O)/C(=C/c2ccc(F)cc2)NC(=O)c2ccccc2)cc1 | – | – | – | concentration not given | – | – | 15.9 ± 0.92 µM |
| CCCCCCCC[N+](CCCCCCCC)(CCCCCCCC)CCCCCCCC | LDH release | – | – | – | 5 h | – | 28.1 µM |
| Cc1nc2ccccc2nc1SCC(=O)Nc1ccc(C(=O)Nc2ccc(O)cc2)cc1 | cell growth or viability | – | MTT | – | – | – | 50.4 µM |

A few entries again:
| SMILES | observed | mode | technique | tested at | time | reference | IC50 |
| --- | --- | --- | --- | --- | --- | --- | --- |
| COc1cc(-c2cc(-c3ccc(Cl)cc3)n(CN3CCCCC3)c(=O)c2C#N)ccc1O | cell growth or viability | – | MTT | – | – | – | ≥ 50 µM |
| N#Cc1c(-c2ccc(Cl)cc2)c(C(N)=O)c(N)n(C2CCCCC2)c1=O | cell growth or viability | – | MTT | – | – | – | 15.6 µM |
| O=C(CN1CCN(c2nc3ccccc3nc2Cl)CC1)NCc1ccccc1 | cell growth or viability | – | MTT | – | 24 h | – | 9.52 µM |
